{"data": "Measurements pooled from the literature", "note": "Lines come from different studies, so protocols differ. Several values in a cell are separate wells, animals, samples, runs or records."}
{"Compound": "CC1=C(Cn2cc(CN3CCC(=O)CC3)nn2)C(=O)c2ccccc2C1=O", "organism": "Schistosoma mansoni", "test system": "adult worms", "setting": "25 µM, 24 h", "endpoint": "killing", "result": "36.5%"}
{"Compound": "CC(=O)OC[C@H]1O[C@@H](Sc2sc(C(=O)c3ccc(Br)cc3)c(N)c2-c2nc3ccccc3s2)[C@H](OC(C)=O)[C@@H](OC(C)=O)[C@@H]1OC(C)=O", "organism": "hepatitis A virus", "test": "plaque reduction", "test system": "HM 175", "setting": "non-toxic dose NG, mean over three titres", "endpoint": "viral reduction", "result": "40%"}
{"Compound": "C=C(NC(=O)c1csc(-c2nc3c(cc2O)-c2nc(cs2)C(=O)NC(C(C)O)C(=O)NC(=C(C)OC)c2nc(cs2)C(=O)NC2c4nc(cs4)C(=O)NC(COC(=O)c4c5c6c(cccc6n4O)COC(=O)C(OC4CC(C)(O)C(N(C)C)C(C)O4)C2OC5)c2nc-3cs2)n1)C(N)=O (stereo not drawn)", "organism": "Streptococcus agalactiae", "test system": "25 clinical isolates", "endpoint": "MIC50", "result": "0.0312 µg/mL"}
{"Compound": "FC(F)(F)c1cccc(CNc2nc(NC3CCN(Cc4ccccc4)CC3)c3nc[nH]c3n2)c1", "organism": "Cryptococcus neoformans", "test": "RNA-seq, refers to: CNAG_05384", "test system": "wild type", "setting": "48 µg/mL, 3 h", "scale": "baseline: untreated wild type", "endpoint": "log2 fold change", "result": 0.011}
{"Compound": "[2H]C([2H])([2H])C1(C([2H])([2H])[2H])NC(=O)N(c2ccc(F)c(C(C)(F)F)c2)C1=O", "organism": "Schistosoma mansoni", "test system": "adult, infected mice", "setting": "oral, single dose", "endpoint": "ED50", "result": "8 mg/kg and 7.8 mg/kg"}
{"Compound": "CC1=C(Cn2cc(CN3CCC(F)(F)CC3)nn2)C(=O)c2ccccc2C1=O", "organism": "Schistosoma mansoni", "test system": "adult worms", "setting": "10 µM, 72 h", "endpoint": "killing", "result": "43.5%"}
{"Compound": "C=C[C@]1(C)C[C@@H](OC(=O)CSc2ccc(NC(=O)c3ccco3)cc2)[C@]2(C)[C@H](C)CC[C@]3(CCC(=O)[C@H]32)[C@@H](C)[C@@H]1O", "organism": "Mycoplasma gallisepticum", "test": "sigmoid Emax model, AUC24h/MIC", "test system": "infected chickens", "endpoint": "Hill slope", "result": 4.22}
{"Compound": "O=C(NCC(O)(Cn1cncn1)c1ccc(F)cc1F)[c-]1cccc1.[Cl-].[Co+3].c1cc[cH-]c1 (racemic)", "organism": "Brugia pahangi", "test": "motility, Worminator", "test system": "adult female", "setting": "50 µM, 6 d", "endpoint": "inhibition", "result": "0%"}
{"Compound": "CC(C)(C)NCC(SS(=O)(=O)O)c1ccccc1 (stereo not drawn)", "organism": "Schistosoma mansoni", "test system": "Swiss Webster mouse, infected", "setting": "oral, 600 mg/kg single dose, 44 days p.i., dosed day 15 p.i.", "endpoint": "spleen weight", "result": "0.23 g and 0.25 g and 0.15 g and 0.46 g"}
{"Compound": "CCCOC(=O)N1c2cc(CNC)ccc2[C@H](NC(=O)C(=O)Nc2ccc(Cl)c(F)c2)[C@H]1CNC(=N)N", "organism": "Human immunodeficiency virus 1", "test": "viral infection, Env pseudovirus", "test system": "TZM-bl, 620345.c01 CRF01_AE", "endpoint": "IC80", "result": "> 100 µM"}
{"Compound": "OC(Cn1cncn1)(Cn1cc(-[c-]2cccc2)nn1)c1ccc(F)cc1F.[Cl-].[Co+3].c1cc[cH-]c1 (racemic)", "organism": "Brugia pahangi", "test": "motility, Worminator", "test system": "adult female", "setting": "50 µM, 1 d", "endpoint": "inhibition", "result": "16%"}
{"Compound": "CC(=O)OC[C@H]1O[C@@H](Sc2sc(C(=O)c3ccc(Cl)cc3)c(N)c2-c2nc3ccccc3s2)[C@H](OC(C)=O)[C@@H](OC(C)=O)[C@H]1OC(C)=O", "organism": "hepatitis A virus", "test": "plaque reduction", "test system": "HM 175", "setting": "non-toxic dose NG, mean over three titres", "endpoint": "viral reduction", "result": "13.3%"}
{"note": "Some of these lines once more:"}
{"Compound": "C=C(NC(=O)c1csc(-c2nc3c(cc2O)-c2nc(cs2)C(=O)NC(C(C)O)C(=O)NC(=C(C)OC)c2nc(cs2)C(=O)NC2c4nc(cs4)C(=O)NC(COC(=O)c4c5c6c(cccc6n4O)COC(=O)C(OC4CC(C)(O)C(N(C)C)C(C)O4)C2OC5)c2nc-3cs2)n1)C(N)=O (stereo not drawn)", "organism": "Streptococcus agalactiae", "test system": "25 clinical isolates", "endpoint": "MIC50", "result": "0.0312 µg/mL"}
{"Compound": "CCCOC(=O)N1c2cc(CNC)ccc2[C@H](NC(=O)C(=O)Nc2ccc(Cl)c(F)c2)[C@H]1CNC(=N)N", "organism": "Human immunodeficiency virus 1", "test": "viral infection, Env pseudovirus", "test system": "TZM-bl, 620345.c01 CRF01_AE", "endpoint": "IC80", "result": "> 100 µM"}
